Measurements pooled from the literature.
Lines come from different studies, so protocols differ. ± marks the error that the study gave. Converted amounts (≈) assume the structure as drawn.

Compound | tested on | assay | system | setting | scale | quantity | value
O=c1c2ccccc2[se]n1CCCCCCn1[se]c2ccccc2c1=O | – | – | 1% Soluplus in water | 24 h, 25 °C, 10 mg/mL | – | solubility | 167 ± 26 µg/mL (≈ 349 µM)
CC(C)(Sc1cc[n+]([O-])cc1-c1ccc(C#N)c2ccccc12)C(=O)OC1OC(C(=O)O)C(O)C(O)C1O (stereo not shown) | – | – | adult men, plasma | oral, 15 mg verinurad, severe renal impairment | reference: normal renal function | AUC(0-inf) increase | 527%
O=C(O)C1OC(OC2C(COS(=O)(=O)O)OC(OC3C(C(=O)O)OC(OC4C(COS(=O)(=O)O)OC(OC5C(C(=O)O)OC(OC6C(COS(=O)(=O)O)OC(OC7C(C(=O)O)OC(OC8C(COS(=O)(=O)O)OC(OC9C(C(=O)O)OC(OC%10C(COS(=O)(=O)O)OC(OC%11C(C(=O)O)OC(Oc%12ccc([N+](=O)[O-])cc%12)C(O)C%11O)C(NS(=O)(=O)O)C%10O)C(OS(=O)(=O)O)C9O)C(NS(=O)(=O)O)C8O)C(OS(=O)(=O)O)C7O)C(NS(=O)(=O)O)C6O)C(OS(=O)(=O)O)C5O)C(NS(=O)(=O)O)C4O)C(OS(=O)(=O)O)C3O)C(NS(=O)(=O)O)C2OS(=O)(=O)O)C(O)C(O)C1OC1OC(COS(=O)(=O)O)C(O)C(O)C1NS(=O)(=O)O (stereo not shown) | – | – | rat, liver | intravenous, 3600 µg/kg per day, 7 days, day 8 | – | organ-to-body weight ratio | 3.04 ± 0.11
CCCOc1ccc(S(N)(=O)=O)cc1-c1nc2c(CCC)nn(C)c2c(=O)[nH]1 | – | – | healthy male humans, plasma | oral, 200 mg udenafil, udenafil alone | reference: metabolite AUC(0-t) over udenafil AUC(0-t) | metabolic ratio | 1.05 ± 0.37
COc1cc(NC(C)=O)c2c(c1O)-c1c(OC)c(OC)cc3c1C(C2)N(C)CC3 (stereo not shown) | – | – | rat kidney homogenate | 100 µg/mL, 4 h, room temperature, short-term storage | – | remaining compound | 93.9 ± 2.7%
O=C(O)[C@@H]1C[C@@H](O)CN1C(=O)[C@@H]1CCCN1 | – | potentiometric titration | – | 37 °C, MAH-1 complex, added: Fe(III) | – | log beta | 11.2
CCCCCCCCCCCCCCCC(=O)N[C@@H](CCCCN)C(=O)N[C@@H](CCCCN)C(=O)N[C@@H](CO)C(=O)N[C@@H](CCCNC(=N)N)C(=O)N[C@@H](C)C(=O)N[C@@H](CC(C)C)C(=O)N[C@@H](Cc1ccccc1)C(N)=O | – | – | cynomolgus monkey, male | 30 mg/kg, day 5 | – | prothrombin time | 12.5 ± 0.6 s
N=C(N)NCCC[C@@H]1NC(=O)[C@H](Cc2c[nH]c3ccccc23)NC(=O)[C@@H](CC2CCCCC2)NC(=O)[C@@H]2CCCN2C(=O)[C@@H](NC(=O)CCc2ccccc2)CCCNC1=O | – | – | C57BL/6J mice, brain | intraperitoneal, 1 mg/kg | – | Cmax | 156 ng/g
CCCC[C@H](NC(=O)CNC(=O)CNC(=O)CN1CCN(CC(=O)O)CCN(CC(=O)O)CCN(CC(=O)O)CC1)C(=O)N[C@H]1CC(=O)NCCCC[C@@H](C(N)=O)NC(=O)[C@H](Cc2c[nH]c3ccccc23)NC(=O)[C@H](CCCNC(=N)N)NC(=O)[C@@H](Cc2ccccc2)NC(=O)[C@H](Cc2c[nH]cn2)NC1=O [gallium-67 labelled] | – | – | C57 mice, B16/F1 melanoma | 24 h | – | tumour to skin uptake ratio | 9.95
Oc1ccc(O)c(CN(CCN(Cc2ccccn2)Cc2cc(O)ccc2O)Cc2ccccn2)c1.[Br-].[Br-].[Mn+2] | – | lucigenin competition from IC50 | – | added: xanthine oxidase/hypoxanthine | – | superoxide reaction rate constant | 2.1e+08 M⁻¹ s⁻¹
Cc1ccc(NCc2cn(-c3ccc(S(N)(=O)=O)cc3)nc2-c2ccc(OCc3ccccc3)cc2)cc1 | – | – | Wistar rat, gastric mucosa | oral, 60 mg/kg, 17 h | reference: vehicle | ulcer severity index | 0.81 ± 0.3
CC(C)[C@H](NC(=O)[C@@H]1CCCN1C(=O)[C@H](CCCNC(=N)N)NC(=O)[C@H](CS)NC(=O)[C@H](Cc1c[nH]c2ccccc12)NC(=O)[C@H](CCCNC(=N)N)NC(=O)[C@@H](Cc1ccccc1)NC(=O)[C@H](Cc1c[nH]cn1)NC(=O)[C@H](CCC(=O)O)NC(=O)[C@H](CS)NC(=O)[C@H](CS)NC(=O)CNC(=O)[C@@H]1CC(=O)N[C@@H](CCCNC(=N)N)C(=O)NCC(=O)N[C@@H](CC(=O)O)C(=O)N[C@H](Cc2ccc(O)cc2)C(=O)N1)C(N)=O [technetium-99m labelled] | – | – | C57 mouse, female, B16/F1 melanoma | intravenous, 0.037 MBq, 24 h | reference: tumour over kidneys | tumour to tissue ratio | 1.72
CN1C(=O)[C@@H](Cc2ccc(O)cc2)NC(=O)CNC(=O)[C@H](Cc2ccc3ccccc3c2)NC(=O)[C@H](CCCNC(=N)N)NC(=O)[C@H]1CCCNC(=O)c1ccc(CNC(=O)CN2CCN(CC(=O)O)CCN(CC(=O)O)CCN(CC(=O)O)CC2)cc1 [gallium-68 labelled] | – | extrapolated to adult male | C57BL/6 mice, liver | – | – | absorbed dose coefficient | 0.0212 ± 0.0075 mGy/MBq
O=C(O)/C=C/c1cccc(S(=O)(=O)Nc2ccccc2)c1 | – | – | human, normal liver function, plasma | intravenous, 400 mg/m^2 belinostat, cycle 1 day -7, geometric mean | reference: metabolite over belinostat | Cmax metabolic ratio | 0.0752
CCCSC(=S)N1CCN(C(=O)/C=C/c2coc3ccccc3c2=O)CC1 | tomato spotted wilt virus | virus inactivation, half-leaf method | Nicotiana glutinosa | tested 31.25 to 500 µg/mL | – | EC50 | 595 ± 13.9 µg/mL (≈ 1480 µM)
CN1CCC[C@]1(C)/C=C/S(=O)(=O)NC(=O)Nc1c2c(cc3c1CCC3)CCC2 | – | – | human, plasma | oral, 50 mg twice daily, 14 days, multiple ascending dose | reference: day 14 over day 1 | accumulation ratio AUC(0-24) | 1.5
Cn1c(=O)oc2ccc(-c3ccc(CC(C#N)NC(=O)C4CNCCCO4)c(F)c3)cc21 (stereo not shown) | – | item: skin exfoliation | human volunteers | oral, dose not given | – | treatment-related adverse event incidence | 3.3%

Compound | tested on | assay | system | setting | scale | quantity | value
CCN(CC)CCSC(=S)N1CCN(C(=O)/C=C/c2coc3ccc(F)cc3c2=O)CC1 | tomato spotted wilt virus | virus inactivation, half-leaf method | Nicotiana glutinosa | tested 31.25 to 500 µg/mL | – | EC50 | 104 ± 8.4 µg/mL (≈ 217 µM)
CC[C@H](C)[C@@H]1NC(=O)[C@H](Cc2ccccc2)NC(=O)[C@@H](NC(=O)[C@H](CCCNC(=N)N)NC(=O)[C@H](Cc2ccccc2)NC(=O)[C@H](Cc2ccccc2)NC(=O)[C@H](CCCCN)NC(=O)[C@H](CO)NC(=O)[C@H](CC(C)C)NC(=O)[C@H](CCCNC(=N)N)NC(=O)[C@H](CCSC)NC(=O)[C@H](C)N)CCCCNC(=O)NCCCC[C@@H](C(=O)N[C@@H](CCCNC(=N)N)C(=O)N[C@@H](CCCCN)C(=O)N[C@@H](CCCCN)C(=O)O)NC(=O)[C@H](CC(C)C)NC1=O | – | circular dichroism | 20% TFE in PBS | 200 µM, pH 7.4, 25 °C | – | helicity | 12.3%
COc1ccc(/C=C/C2=[N+]3C(=C(COC(C)=O)c4c(C)cc(/C=C/c5ccc(OC)cc5)n4[B-]3(F)F)C(C)=C2)cc1 | – | – | DMSO/methanol 1:1 | 1 h, added: 645 nm light, 9.00 J/cm2 | – | photostability | unstable
CN(C)C(CNC(=O)Nc1cc(C(F)(F)F)ccc1N1CCOCC1)c1ccncc1 (stereo not shown) | – | – | human, plasma | – | – | fraction unbound | 0.086
COC(=O)Cn1c2ccc([N+](=O)[O-])cc2c(=O)n1Cc1ccccc1 | – | resazurin | peritoneal macrophages, BALB/c mice | 48 h, 10% FBS | – | CC50 | 171 ± 22.1 µM
NC12CNCCNCC(NCc3ccc(CNC(=O)CCCC(=O)NCc4ccc(-c5nncnn5)cc4)cc3)(CNCCNC1)CNCCNC2.[64Cu+2] | – | OLINDA dosimetry | thymus | 24 h pretargeting interval, added: huA33-TCO pretargeting | – | mean absorbed dose | 0.0351 rad/mCi
C=C(C)C(=O)Nc1ccc(-c2c(-c3ccc(Oc4nccc(C)n4)cc3)c3c(N)ncnc3n2C)cc1 | – | – | cynomolgus monkey, plasma | intravenous | – | Vd | 0.2 L/kg
NC(=S)N/N=C/c1ccccc1O | – | cyclic voltammetry | DMF | Cu2+ complex | – | peak current ratio ipa/ipc | 0.19
N#Cc1cc(C(=O)OCC[18F])c(C(F)(F)F)nc1N1CCN(C(=O)Cc2ccccc2)CC1 | – | dynamic PET | human, epileptic focus | intravenous | – | peak SUV | 2.5 ± 1.58
O=C([O-])CN1CCN(CC(=O)[O-])CCN(CC(=O)NCC2CCC(C(=O)NC(Cc3ccc4ccccc4c3)C(=O)NCCCCC(NC(=O)NC(CCC(=O)O)C(=O)O)C(=O)O)CC2)CCN(CC(=O)[O-])CC1.[44Sc+3] (stereo not shown) | – | PET/CT dosimetry, OLINDA/EXM | human, liver | – | – | organ absorbed dose | 0.229 mSv/MBq
Cc1ccc(OCC(=O)O)cc1 | – | – | Sprague-Dawley rat, male, plasma | oral gavage, 30 mg/kg of parent drug | – | AUC(0-last) | 14800 ± 3210 ng·h/mL
CCCC(CCC)NC(=O)c1ccc(OC2OC(C(=O)O)C(O)C(O)C2O)c(OC)c1 (stereo not shown) | – | – | female Sprague-Dawley rat, plasma | oral, 20 mg/kg of parent drug | – | Tmax | 2.2 h
CCc1noc(CC)c1C(=O)O[C@H]1C(C)=C[C@]23C(=O)[C@@H](C=C(CO)[C@@H](O)[C@]12O)[C@H]1[C@@H](C[C@H]3C)C1(C)C | – | – | phosphate buffer | 2 h, pH 7.4, 37 °C | – | 20-isomer formed | 1%
[64Cu+2].c1ccc(CNCc2ccc(CN3CCCN4CCNCCCN(CC4)CC3)cc2)nc1 | CXCR4 | – | NOD/SCID mouse, U87 and U87-stb-CXCR4 xenografts, pancreas | iv, 60 min, ex vivo | – | tissue uptake | 1.38 ± 0.16 %ID/g
O=Cc1c(O)ccc2ccccc12 | HUVEC | RNA sequencing, item: TSLP | – | 75 µM, 24 h | reference: DMSO | log2 fold change | 3.82
CN1CCC(Cn2nc(-c3ccc4nc(O)ccc4c3)c3c(N)ncnc32)CC1 | – | – | piglets, crossbred | oral, 10 mg/kg twice daily, 2 h before dose 9, 7 days post infection | – | plasma concentration | 200 ± 10 nM
N=C(N)NCCC[C@H](NC(=O)[C@H](CCCNC(=N)N)NC(=O)[C@H](CCCNC(=N)N)NC(=O)[C@H](CCCNC(=N)N)NC(=O)[C@H](CCCNC(=N)N)NC(=O)[C@H](CCCNC(=N)N)NC(=O)[C@H](CCCNC(=N)N)NC(=O)[C@H](CCCNC(=N)N)NC(=O)[C@H](CCCNC(=N)N)NC(=O)[C@H](CCCNC(=N)N)NC(=O)[C@H](CCCNC(=N)N)NC(=O)[C@H](CCCNC(=N)N)NC(=O)[C@H](CCCNC(=N)N)NC(=O)[C@H](CCCNC(=N)N)NC(=O)[C@H](CCCNC(=N)N)NC(=O)[C@H](CCCNC(=N)N)NC(=O)[C@H](CCCNC(=N)N)NC(=O)[C@H](CCCNC(=N)N)NC(=O)[C@H](CCCNC(=N)N)NC(=O)[C@H](CCCNC(=N)N)NC(=O)c1ccc2c(c1)C(=O)OC21c2ccc(O)cc2Oc2cc(O)ccc21)C(=O)O | – | – | bovine, healthy cartilage explants | 30 µM, 24 h, 37 °C, 5-FAM labelled | reference: tissue over bath concentration | cartilage uptake ratio | ~181

Some of these lines once more:
Compound | tested on | assay | system | setting | scale | quantity | value
COc1ccc(/C=C/C2=[N+]3C(=C(COC(C)=O)c4c(C)cc(/C=C/c5ccc(OC)cc5)n4[B-]3(F)F)C(C)=C2)cc1 | – | – | DMSO/methanol 1:1 | 1 h, added: 645 nm light, 9.00 J/cm2 | – | photostability | unstable
CN(C)C(CNC(=O)Nc1cc(C(F)(F)F)ccc1N1CCOCC1)c1ccncc1 (stereo not shown) | – | – | human, plasma | – | – | fraction unbound | 0.086
COC(=O)Cn1c2ccc([N+](=O)[O-])cc2c(=O)n1Cc1ccccc1 | – | resazurin | peritoneal macrophages, BALB/c mice | 48 h, 10% FBS | – | CC50 | 171 ± 22.1 µM
